# Results collected from several papers.
# Numbered parts are unrelated; each lists some results of a single study. Positions count from the first letter of the parent shown.

# Sample 1
# Target: TAR DNA-binding protein 43, full length, His tag (TARDBP, Homo sapiens, UniProt Q13148, residues 1-414)
# Method: RNA Bind-n-Seq
# Form: RNA
# Sample: in vitro
# Tested at: 20 nM
# Setting: 6-mer, flanks averaged, single round
# Together with: 150 mM KCl
# Baseline: input library
# Reading: higher = stronger binding
Sequence,6-mer enrichment (R)
ACGGCA,0.892
AGCCAG,0.936
UUCCAU,0.561
AUCAUG,0.637
GGCCUG,1.56
AGCGCU,0.765

# Sample 2
# Target: Histone acetyltransferase KAT6A, winged helix 1, GST fusion (KAT6A, Homo sapiens, UniProt Q92794, residues 1-85)
# Method: protein binding microarray
# Form: double-stranded DNA, one strand shown
# Sample: in vitro
# Tested at: not given
# Setting: 8-mer, flanks averaged, mean of 2 arrays, mostly near background
# Baseline: not given
# Reading: higher = stronger binding
# Construct (chain): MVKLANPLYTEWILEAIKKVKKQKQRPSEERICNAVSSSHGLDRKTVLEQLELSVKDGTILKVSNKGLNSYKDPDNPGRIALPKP
Sequence,E-score
ATCCACCC,0.0561
GAAATCGA,0.0722
CAAGACAG,-0.2
CGCATCAC,0.0798
GCACGCGC,0.364
ATAATCCC,-0.0454

# Sample 3
# Target: CRIPT, C-terminal peptide
# Method: DHFR complementation, deep sequencing
# Sample: yeast
# Setting: single substitutions, model-inferred values
# Baseline: wild type
# Reading: higher = weaker binding
# Parent: ERBIN, PDZ domain 1 (human); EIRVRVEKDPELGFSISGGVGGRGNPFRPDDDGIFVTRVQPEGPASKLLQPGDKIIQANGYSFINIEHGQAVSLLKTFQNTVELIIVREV; partner TKNYKQTSV
Substitution,binding free energy change [kcal/mol]
G43S,0.651
Q40P,0.678
S73F,-0.0349

# Further values, each from its own experiment
Substance,target,assay,test system,setting,scale,endpoint,value
"PhoQ, residues 284 288 289 292 302 303 SVHLDV","PhoP, residues 12 14 15 18 19 VQGLL (Escherichia coli, UniProt P23836)","Sort-seq, refers to: YFP reporter",E. coli,"PhoQ-PhoP variant library, together with: 10 µM Mg2+","baseline: high Mg2+ state, higher = stronger signaling",fold induction,8.3

# Repeated from above (sample 1):
Sequence,6-mer enrichment (R)
AUCAUG,0.637
